# Measurements pooled from the literature.
# Every numbered part comes from another study and shows a few of its results, in no order.
# UniProt P08069, sequence (whole entry, looked up): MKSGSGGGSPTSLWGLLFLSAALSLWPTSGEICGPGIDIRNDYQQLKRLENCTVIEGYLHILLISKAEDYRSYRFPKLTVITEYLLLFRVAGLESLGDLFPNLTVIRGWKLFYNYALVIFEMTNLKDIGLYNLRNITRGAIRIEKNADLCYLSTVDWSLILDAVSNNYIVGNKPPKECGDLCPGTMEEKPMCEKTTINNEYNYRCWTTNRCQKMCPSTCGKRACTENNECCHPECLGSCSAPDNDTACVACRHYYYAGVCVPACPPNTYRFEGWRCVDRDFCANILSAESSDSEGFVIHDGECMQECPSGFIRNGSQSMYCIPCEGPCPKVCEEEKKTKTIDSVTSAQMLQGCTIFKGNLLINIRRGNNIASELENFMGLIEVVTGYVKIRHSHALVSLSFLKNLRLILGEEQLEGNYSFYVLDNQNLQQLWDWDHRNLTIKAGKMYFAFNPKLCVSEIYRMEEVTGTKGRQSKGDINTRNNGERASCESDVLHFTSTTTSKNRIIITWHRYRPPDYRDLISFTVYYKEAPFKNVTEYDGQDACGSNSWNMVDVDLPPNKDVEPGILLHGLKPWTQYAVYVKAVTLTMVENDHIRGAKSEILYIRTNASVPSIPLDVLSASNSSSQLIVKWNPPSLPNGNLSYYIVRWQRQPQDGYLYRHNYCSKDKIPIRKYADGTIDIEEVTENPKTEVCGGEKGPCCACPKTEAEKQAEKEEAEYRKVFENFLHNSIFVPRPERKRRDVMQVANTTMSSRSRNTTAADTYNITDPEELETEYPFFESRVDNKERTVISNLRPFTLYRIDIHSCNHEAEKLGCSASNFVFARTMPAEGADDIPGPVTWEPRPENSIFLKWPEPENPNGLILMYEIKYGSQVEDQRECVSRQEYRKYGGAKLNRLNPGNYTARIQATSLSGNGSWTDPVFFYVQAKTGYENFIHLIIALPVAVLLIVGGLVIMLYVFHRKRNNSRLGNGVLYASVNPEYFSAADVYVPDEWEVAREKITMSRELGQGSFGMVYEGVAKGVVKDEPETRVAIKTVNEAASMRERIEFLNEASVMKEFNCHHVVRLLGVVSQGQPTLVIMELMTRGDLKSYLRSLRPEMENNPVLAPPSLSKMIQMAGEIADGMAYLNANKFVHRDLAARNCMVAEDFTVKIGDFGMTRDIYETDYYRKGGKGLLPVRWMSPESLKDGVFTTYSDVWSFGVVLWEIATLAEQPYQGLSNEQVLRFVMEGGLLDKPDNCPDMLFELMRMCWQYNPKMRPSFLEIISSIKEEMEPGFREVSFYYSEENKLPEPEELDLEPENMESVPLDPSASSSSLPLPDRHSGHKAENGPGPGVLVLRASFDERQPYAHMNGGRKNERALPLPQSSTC
# UniProt Q99788, sequence (whole entry, looked up): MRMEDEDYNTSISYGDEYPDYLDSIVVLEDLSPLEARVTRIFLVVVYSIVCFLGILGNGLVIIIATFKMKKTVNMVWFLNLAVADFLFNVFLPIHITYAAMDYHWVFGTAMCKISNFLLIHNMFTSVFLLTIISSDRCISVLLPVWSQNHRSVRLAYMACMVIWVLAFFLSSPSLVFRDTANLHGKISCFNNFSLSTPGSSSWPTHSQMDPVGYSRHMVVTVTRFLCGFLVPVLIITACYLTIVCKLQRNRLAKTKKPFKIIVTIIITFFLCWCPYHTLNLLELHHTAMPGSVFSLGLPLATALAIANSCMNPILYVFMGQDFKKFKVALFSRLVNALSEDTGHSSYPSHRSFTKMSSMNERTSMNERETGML
# UniProt P15056, sequence (whole entry, unmodified, looked up): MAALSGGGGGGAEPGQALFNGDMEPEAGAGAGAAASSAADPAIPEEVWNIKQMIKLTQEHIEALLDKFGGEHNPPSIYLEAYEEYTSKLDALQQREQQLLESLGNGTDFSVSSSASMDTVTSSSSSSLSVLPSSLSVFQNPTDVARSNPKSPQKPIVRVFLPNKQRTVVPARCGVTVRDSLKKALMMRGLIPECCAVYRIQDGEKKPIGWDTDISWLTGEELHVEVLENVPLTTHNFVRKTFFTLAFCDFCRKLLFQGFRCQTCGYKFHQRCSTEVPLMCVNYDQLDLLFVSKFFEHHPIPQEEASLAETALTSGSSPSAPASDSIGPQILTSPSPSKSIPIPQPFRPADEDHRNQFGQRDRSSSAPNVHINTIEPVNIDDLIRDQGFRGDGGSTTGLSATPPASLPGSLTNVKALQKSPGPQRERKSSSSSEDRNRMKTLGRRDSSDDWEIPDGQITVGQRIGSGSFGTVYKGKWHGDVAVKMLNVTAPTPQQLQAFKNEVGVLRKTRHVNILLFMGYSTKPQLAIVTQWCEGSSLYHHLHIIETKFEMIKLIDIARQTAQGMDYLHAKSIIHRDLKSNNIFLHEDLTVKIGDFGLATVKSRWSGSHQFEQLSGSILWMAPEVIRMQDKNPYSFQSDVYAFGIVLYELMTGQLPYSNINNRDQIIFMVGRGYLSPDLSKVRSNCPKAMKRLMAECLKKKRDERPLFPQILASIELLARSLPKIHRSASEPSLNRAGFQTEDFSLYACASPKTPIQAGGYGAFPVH
# UniProt P25101, sequence (whole entry, looked up): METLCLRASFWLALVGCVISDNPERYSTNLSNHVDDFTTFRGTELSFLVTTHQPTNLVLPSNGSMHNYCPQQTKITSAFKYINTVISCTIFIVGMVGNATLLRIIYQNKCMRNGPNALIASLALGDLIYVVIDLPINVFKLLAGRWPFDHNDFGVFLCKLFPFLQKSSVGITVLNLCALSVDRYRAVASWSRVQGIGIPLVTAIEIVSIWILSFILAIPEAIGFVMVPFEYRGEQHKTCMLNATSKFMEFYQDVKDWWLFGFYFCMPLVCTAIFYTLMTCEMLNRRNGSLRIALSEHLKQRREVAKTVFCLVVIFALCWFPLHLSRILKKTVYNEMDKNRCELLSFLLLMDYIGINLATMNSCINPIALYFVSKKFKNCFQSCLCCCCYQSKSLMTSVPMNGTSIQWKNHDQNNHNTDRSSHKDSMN
# UniProt P36894, sequence (whole entry, looked up): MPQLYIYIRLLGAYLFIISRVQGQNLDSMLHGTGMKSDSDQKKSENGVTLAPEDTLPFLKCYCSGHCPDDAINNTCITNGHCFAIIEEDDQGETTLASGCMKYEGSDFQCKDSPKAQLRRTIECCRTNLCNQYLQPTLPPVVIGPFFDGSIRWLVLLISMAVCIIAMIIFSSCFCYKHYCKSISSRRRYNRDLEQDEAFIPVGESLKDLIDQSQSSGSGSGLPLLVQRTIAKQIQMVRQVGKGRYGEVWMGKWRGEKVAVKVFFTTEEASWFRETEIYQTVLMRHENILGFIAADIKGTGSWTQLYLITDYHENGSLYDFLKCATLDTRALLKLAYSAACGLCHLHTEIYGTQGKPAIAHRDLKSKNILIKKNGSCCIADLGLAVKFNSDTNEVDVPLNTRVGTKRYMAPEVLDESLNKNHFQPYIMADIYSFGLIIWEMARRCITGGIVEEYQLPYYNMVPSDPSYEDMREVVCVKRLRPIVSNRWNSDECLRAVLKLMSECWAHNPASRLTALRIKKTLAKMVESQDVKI

# Series 1
# Target: Muscle, skeletal receptor tyrosine-protein kinase (MUSK, Homo sapiens, UniProt O15146)
# UniProt O15146, sequence (whole entry, looked up): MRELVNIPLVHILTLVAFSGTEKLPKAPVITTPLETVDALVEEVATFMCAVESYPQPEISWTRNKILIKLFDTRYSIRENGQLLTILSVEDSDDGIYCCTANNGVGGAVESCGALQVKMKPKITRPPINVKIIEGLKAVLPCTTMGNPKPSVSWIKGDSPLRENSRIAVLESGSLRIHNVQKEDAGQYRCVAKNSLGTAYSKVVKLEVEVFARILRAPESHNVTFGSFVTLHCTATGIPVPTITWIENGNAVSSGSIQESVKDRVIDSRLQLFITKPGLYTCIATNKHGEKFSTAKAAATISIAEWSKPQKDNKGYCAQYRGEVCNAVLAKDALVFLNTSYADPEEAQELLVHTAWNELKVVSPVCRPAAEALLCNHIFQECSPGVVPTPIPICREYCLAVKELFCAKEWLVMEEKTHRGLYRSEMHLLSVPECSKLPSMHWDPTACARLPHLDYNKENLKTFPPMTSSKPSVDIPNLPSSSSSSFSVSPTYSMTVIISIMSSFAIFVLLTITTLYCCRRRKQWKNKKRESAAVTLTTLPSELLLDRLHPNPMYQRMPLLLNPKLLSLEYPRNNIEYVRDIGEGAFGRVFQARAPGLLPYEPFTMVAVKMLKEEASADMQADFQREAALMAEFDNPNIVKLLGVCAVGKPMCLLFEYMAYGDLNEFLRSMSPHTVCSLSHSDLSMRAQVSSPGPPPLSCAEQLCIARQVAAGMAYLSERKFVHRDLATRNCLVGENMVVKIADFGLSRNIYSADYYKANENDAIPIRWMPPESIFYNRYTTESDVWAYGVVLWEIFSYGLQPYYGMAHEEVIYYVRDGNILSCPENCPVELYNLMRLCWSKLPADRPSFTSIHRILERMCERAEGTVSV
# Effect on: enzyme activity
# Action: inhibitor
# Concentration: 0.5 µM
# Relative to: control
Compound,remaining activity
CCOc1nc(NC(=O)Cc2cc(OC)ccc2OC)cc(N)c1C#N,104%
Cc1cc2ncc(-c3ccccc3)nc2cc1C,102%
COc1cc2c(cc1OC)-c1[nH]nc(Nc3cccc(F)c3)c1C2,82.7%
CCN(CC)C(=O)c1ccc(Nc2nc(OCC3CCCCC3)c3[nH]cnc3n2)cc1,77.5%
c1ccc(-c2[nH]ncc2-c2ccnc3ccccc23)nc1,93.4%
N#C/C(=C\c1ccc(O)c(O)c1)C(=O)NCc1ccccc1,97.9%
COc1cc2ncnc(Nc3cccc(Cl)c3)c2cc1OC,88.3%
O=C(NC(NC(=S)Nc1ccc(F)c([N+](=O)[O-])c1)C(Cl)(Cl)Cl)C(c1ccccc1)c1ccccc1 (centres unmarked),106%
CCN(CC)CCNC(=O)c1c(C)[nH]c(/C=C2\C(=O)Nc3ccc(F)cc32)c1C,51.3%
CCN(CC)CCNC(=O)c1c(C)[nH]c(/C=C2\C(=O)Nc3ccc(Cl)cc32)c1C,63.5%
Nc1cccc(-c2cc3c(Oc4cccc(O)c4)ncnc3[nH]2)c1,62.8%
COc1cc2ncnc(Nc3ccc(O)c(Br)c3)c2cc1OC,78.2%
Ic1cccc(CSc2nnc(-c3ccncc3)o2)c1,94.1%
Cc1cn(-c2cc(NC(=O)c3ccc(C)c(Nc4nccc(-c5cccnc5)n4)c3)cc(C(F)(F)F)c2)cn1,91.1%
O=C(Nc1cccc(Nc2nccc(Nc3cccc(C(F)(F)F)c3)n2)c1)C1CC1,101%
Cc1nc2cc3nc(-c4cccs4)cnc3cc2n1C,90.6%
CN([C@@H](Cc1ccc(OS(=O)(=O)c2cccc3cnccc23)cc1)C(=O)N1CCN(c2ccccc2)CC1)S(=O)(=O)c1cccc2cnccc12,92.7%
C[C@@H]1CCN(C(=O)CC#N)C[C@@H]1N(C)c1ncnc2[nH]ccc12,103%
O=C1c2ccccc2-c2n[nH]c3cccc1c23,62.2%
O=C1C(Cl)=C(N2C(=O)CCC2=O)C(=O)c2ccccc21,104%
N#Cc1c(NC(=O)c2cccc3ccccc23)sc2c1CCCC2,94.8%
O=c1cc(-c2cccc3c2Sc2ccccc2S3)oc(N2CCOCC2)c1,89.1%
Cn1nc2c3c(cccc31)C(=O)c1ccccc1-2,88.4%
c1ccc(-c2cnc(Nc3ccc(OCCN4CCCC4)cc3)s2)cc1,84.2%

# Series 2
# SMILES: O=S(=O)(NC1CCC(c2cc(F)ccc2F)(S(=O)(=O)c2ccc(Cl)cc2)CC1)C(F)(F)F (centres unmarked)
# Technique: competition with immobilised ligand
# Concentration: 1 µM
target,assay,remaining binding [%]
"EPHB6 (Homo sapiens, UniProt O15197)",cell-free assay,100
"PAK5 (Homo sapiens, UniProt Q9P286)",cell-free assay,100
"Ribosomal protein S6 kinase alpha-5, C-terminal kinase domain (RPS6KA5, Homo sapiens, UniProt O75582)",cell-free assay,71
"CDK5 (Homo sapiens, UniProt Q00535)",cell-free assay,100
"BMPR1A (Homo sapiens, UniProt P36894)",binding,100
"FES (Homo sapiens, UniProt P07332)",cell-free assay,88
"CSNK1G2 (Homo sapiens, UniProt P78368)",cell-free assay,99
"PNCK (Homo sapiens, UniProt Q6P2M8)",cell-free assay,100
"PIK3CA (Homo sapiens, UniProt P42336, E545A)",cell-free assay,95
"FLT4 (Homo sapiens, UniProt P35916)",cell-free assay,100
"PRPF4B (Homo sapiens, UniProt Q13523)",cell-free assay,100
"ANKK1 (Homo sapiens, UniProt Q8NFD2)",cell-free assay,92
"MATK (Homo sapiens, UniProt P42679)",cell-free assay,100
"PRKACB (Homo sapiens, UniProt P22694)",cell-free assay,98
"IGF1R (Homo sapiens, UniProt P08069)",cell-free assay,100
"MAP4K1 (Homo sapiens, UniProt Q92918)",cell-free assay,96
"BRAF (Homo sapiens, UniProt P15056, V600E)",cell-free assay,86
"PRKACA (Homo sapiens, UniProt P17612)",cell-free assay,100
"CSNK1G1 (Homo sapiens, UniProt Q9HCP0)",cell-free assay,86

# Series 3
# Target: Calcium/calmodulin-dependent protein kinase type II subunit alpha (CAMK2A, Homo sapiens, UniProt Q9UQM7)
# UniProt Q9UQM7, sequence (whole entry, looked up): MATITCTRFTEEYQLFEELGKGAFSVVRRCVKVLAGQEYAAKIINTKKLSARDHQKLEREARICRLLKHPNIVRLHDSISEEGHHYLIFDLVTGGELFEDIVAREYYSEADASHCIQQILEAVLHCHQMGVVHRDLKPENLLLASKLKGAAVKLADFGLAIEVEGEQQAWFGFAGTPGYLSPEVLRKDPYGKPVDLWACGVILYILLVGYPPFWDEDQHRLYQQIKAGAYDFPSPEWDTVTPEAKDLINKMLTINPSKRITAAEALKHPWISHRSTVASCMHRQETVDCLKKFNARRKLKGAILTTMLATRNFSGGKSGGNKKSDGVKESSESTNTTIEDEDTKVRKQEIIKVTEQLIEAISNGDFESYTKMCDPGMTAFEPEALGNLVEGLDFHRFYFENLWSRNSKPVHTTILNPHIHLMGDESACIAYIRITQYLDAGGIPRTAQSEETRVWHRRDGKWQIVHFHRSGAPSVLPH
# Effect on: enzyme activity
# Action: inhibitor
# Concentration: 10 µM
SMILES,inhibition [%]
CC(C)=C[C@@H]1CO[C@]23C[C@]4(CO2)[C@H](CC[C@@H]2[C@@]5(C)CC[C@H](O[C@@H]6OC[C@H](O)[C@H](O[C@@H]7O[C@H](CO)[C@@H](O)[C@H](O)[C@H]7O)[C@H]6O[C@@H]6O[C@@H](CO)[C@H](O)[C@H]6O)C(C)(C)[C@@H]5CC[C@]24C)[C@H]3[C@@]1(C)O,-9
COc1ccc(CCN(C)CCC[C@@](C#N)(c2ccc(OC)c(OC)c2)C(C)C)cc1OC,4
CO[C@]12C[C@@H](COC(=O)c3cncc(Br)c3)CN(C)[C@@H]1Cc1cn(C)c3cccc2c13,0
CC1=CC(=O)CC1,-6
COn1cc(CC#N)c2ccccc21,7
CCc1cc(C(N)=S)ccn1,-5
CC(O)(CC(=O)O)CC(=O)O,-7
CC(C)NC[C@H](O)COc1ccc(CCOCC2CC2)cc1,-4
C[C@@H](c1ccc2nccn2c1)n1nnc2ncc(-c3cnn(C)c3)nc21,-1
COc1ccc(CCC(=O)c2ccc(O)cc2)c(OC)c1,-4

# Series 4
# Structure (SMILES): CC(C)CN(C)c1nc(N)c(C(=O)N=C(N)N)nc1Cl
# Effect on: β-arrestin recruitment
# Action: agonist
# Technique: PRESTO-Tango
# Concentration: 10 µM
# Relative to: untreated
target,fold over basal
"EDNRA (Homo sapiens, UniProt P25101)",0.83
"HTR1F (Homo sapiens, UniProt P30939)",0.72
"HCRTR1 (Homo sapiens, UniProt O43613)",0.76 fold
"G-protein coupled receptor 182 (GPR182, Homo sapiens, UniProt O15218)",0.85
"TAAR1 (Homo sapiens, UniProt Q96RJ0)",0.67 fold
"GPR65 (Homo sapiens, UniProt Q8IYL9)",0.67
"PTGER3 (Homo sapiens, UniProt P43115)",0.99
"ADORA3 (Homo sapiens, UniProt P0DMS8)",1.03
"CMKLR1 (Homo sapiens, UniProt Q99788)",0.38

# Some of these lines once more (series 3):
SMILES,inhibition [%]
CC(C)=C[C@@H]1CO[C@]23C[C@]4(CO2)[C@H](CC[C@@H]2[C@@]5(C)CC[C@H](O[C@@H]6OC[C@H](O)[C@H](O[C@@H]7O[C@H](CO)[C@@H](O)[C@H](O)[C@H]7O)[C@H]6O[C@@H]6O[C@@H](CO)[C@H](O)[C@H]6O)C(C)(C)[C@@H]5CC[C@]24C)[C@H]3[C@@]1(C)O,-9
COc1ccc(CCN(C)CCC[C@@](C#N)(c2ccc(OC)c(OC)c2)C(C)C)cc1OC,4
CO[C@]12C[C@@H](COC(=O)c3cncc(Br)c3)CN(C)[C@@H]1Cc1cn(C)c3cccc2c13,0
CC1=CC(=O)CC1,-6
COn1cc(CC#N)c2ccccc21,7
CCc1cc(C(N)=S)ccn1,-5
